Results from different studies.
Numbered parts are unrelated; each lists some results of a single study.

Study 1
Target: Histone acetyltransferase KAT6A, winged helix 2, GST fusion (KAT6A, Homo sapiens, UniProt Q92794, residues 85-181)
Method: protein binding microarray
Molecule type: double-stranded DNA, one strand shown
Matrix: in vitro
Tested at: not given
Setting: 8-mer, flanks averaged, mean of 2 arrays, mostly near background
Baseline: not given
Reading: higher = stronger binding
Construct (chain): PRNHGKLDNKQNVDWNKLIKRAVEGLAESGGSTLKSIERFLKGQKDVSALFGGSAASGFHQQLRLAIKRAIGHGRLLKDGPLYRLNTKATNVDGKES
Strand	E-score
AAGCGTTA	-0.138
AGAATTCC	-0.0638
TGACACAA	0.0141
ACTCCTAA	0.0139
AATCCTTA	-0.0419
GGACTCTA	-0.15
CGATGAGC	0.148
GCGCTTCC	-0.0809
GATACTCA	0.0397
CCCGGGAG	0.168
ACGAATAG	-0.11
CAGGAAGA	0.0426
ATGCCGCA	0.109
ATAAGGAA	-0.101
ACATTGCC	-0.0993
CATTCTTA	-0.00763
CCCCATAG	-0.0612
CAAAAGAA	0.207
CCAAGCTA	-0.0254

Study 2
Target: RING finger protein unkempt homolog, zinc fingers 1-6, GST-SBP tag (UNK, Homo sapiens, UniProt Q9C0B0, residues 30-357)
Sequence of UniProt Q9C0B0 (30-357, looked up): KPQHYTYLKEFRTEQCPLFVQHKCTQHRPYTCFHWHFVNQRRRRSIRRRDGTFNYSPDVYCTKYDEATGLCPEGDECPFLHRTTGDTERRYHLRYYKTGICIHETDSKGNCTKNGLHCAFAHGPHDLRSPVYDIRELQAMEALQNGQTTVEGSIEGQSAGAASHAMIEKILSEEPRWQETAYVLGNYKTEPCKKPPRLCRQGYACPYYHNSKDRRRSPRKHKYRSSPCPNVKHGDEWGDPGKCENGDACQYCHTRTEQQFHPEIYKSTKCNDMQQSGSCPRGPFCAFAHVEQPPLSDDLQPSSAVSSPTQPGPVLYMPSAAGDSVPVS
Method: RNA Bind-n-Seq
Molecule type: RNA
Matrix: in vitro
Tested at: not given
Setting: RNA with constant flanks, human-mouse chimeric sites, ends assumed
Baseline: input RNA pool
Reading: higher = stronger binding
Constant ends, left off below: GGGAGUUCUACAGUCCGACGAUC … CAACAGAGGAUUGAGCAUCA
Strand	bound/input enrichment [ratio]
AAUUUCCUGUCAUACUUUUUAGACAUUGCCAUAGGUAUUACAGAGCACCUGGCCACAUUCUAGGUUUGUGUUAUUUCUCAGCUAUGGAUAUGAUCAAAGAGUGAAAAUGCUUAACUAAUG	0.827
GAGCGUCUCGCUCGAACCGGGAUCAUAGUGACCACUAGUGAGGCUGUCCUCCUACAGCUGGUGGCUGACAAAGACCACCCGAAGUUCAAGGAAAUUCAGAACCUAAUUAAGGCGAGUGCC	0.172
CGGAGCCCUCCUCUCCCACAGGCCCAAGAUAUAACCCACCAGUGCCUUUUGUCUUCCUGUCAGCUCUGUCAAUCACGGCCCUGCCUUCACGCCCACACUCCCCAGCCAAAGUGGGGAGGG	0.447
UCAGUCUUUUUGUACAGUAAGUUAUUUUCUUAACAUUUUUAUAUUGCCAUGUUUAUUUUGUUUGGGUAAUUUGGUUCAUUAAGUACAUAGCUAAGGUAAUGAACAUCUUUUUCAGUAAUU	2.44
AUAAAGGCUAUGUUGAGUGGUCCAGGUCAGUUUGCUGAGAAUGAAACCAACGAGGUCAAUUUUAGAGAGAUACCUUCACAUGUGCUAUCAAAAGUGUGCAUGUAUUUUACCUACAAGGUC	0.109
CACGUGUCUGCAGUACUUGAUGUGGACUACUCUCCCACUGGGAAGGAGUUUGUGUCUGCCAGCUUUGAUAAGUCUAUUAGAAUCUUUCCUGUGGACAAGAGCCGAAGCAGGGAAGUGUAU	0.166
UAACCACAUCAAGAUGGUUGGGAAGCUGAAGCAGAACUUACUCUUGGCGUGUCUGGUGAUUAGUUCUGUGACCGUGUUUUACCUGGGCCAGCAUGCCAUGGAAUGCCAUCACCGAAUAGA	0.196
UUCUAGUAUGAUGGUGAUAUUGGCAAUUAUUAUUAUGGCCAGGGUCAUCCCAUGAAGCCUCAUAGAAUCCGGAUGACUCAUAACUUGCUGCUAAAUUAUGGUUUAUACCGAAAAAUGGAA	0.171

Study 3
Target: RNA binding protein fox-1 homolog 2, RRM domain, GST-SBP tag (RBFOX2, Homo sapiens, UniProt O43251-10, residues 100-194)
Method: RNA Bind-n-Seq
Molecule type: RNA
Matrix: in vitro
Tested at: 365 nM
Setting: natural RNA segment, single round, ends assumed
Baseline: no-protein control
Reading: higher = stronger binding
Constant ends, left off below: GGGAGUUCUACAGUCCGACGAUC … UGGAAUUCUCGGGUGCCAA
Target sequence (chain): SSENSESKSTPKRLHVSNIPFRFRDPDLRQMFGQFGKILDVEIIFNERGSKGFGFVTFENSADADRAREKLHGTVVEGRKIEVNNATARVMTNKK
Strand	RBNS enrichment (R)
CUUUGUAAAGUGCGCAAGUGCAAUAAUUUAAAGAGGUCUUAUCUUUGCAUUUAUAAAUUAUAAAUAUUGUACAUGUGUGUAAUUUUUCAUGUAUUCAUUUGCAGUCUUUG	0.515
AGUGAAACGCUUUGUAAGGAGGCAUCUGGGUAAUUAUGCAAAUAAGUUUGUGAUAAUUGCUCCAGUUCUACAAACAACAGAAUUUUAAAUAGAGGAAGUGGAUAAAGGAG	0.299
ACCCAGGGGUGGUGGUCCCAGCCAGUUUGGUGCUGACGGUGAGAGGAAAUUAGAAUCUGUUUGCAAAUUGUCCAACCCACCCCCUCAACAUGAGGGGCUUCCAUUUUCUG	0.834
UGUGUAUGUUUUUGCUUCCCAUGUAACUUCUCCAGUGUUCUGGCAUGAAUUAGAUUUUACUGCUUGUCAUUUUGUUAUUUUCUUACCAAGUGCAUUGAUAUGUGAAGUAG	3.34
UCACCUCCGAACUGUUCAAGUGUCCCCAGACCCUUCUUGCCUGCUGGGCUCCCCCCAGUGGGAUGGGACAGGGAGGCCACACGCACUGGUGCCAAAACCAGGCCUCUGCU	0.304
GGGGCCUCCUUGUCAGCUCUGCUGCUGUCUCAGAGCCAUCUGGAUGAGUGUCCCGACACCCUCUCGGAUGCAGGGCAGGACCACCCAGCUGGUCAGACUCUGAUGUUGGG	0.329
UCGCAGGAGCAUUAACCUCCUGGAGACGGAGCUGGGAGGACUCGGUGCAUCCCUGUGUUGAUAGCUCCUGCUUCGGUAGGGAACUCUGAGAUCCUGCUUCCAUCUCCAGC	0.481
GCAAGGAGUUUCAGAAGCUAGACAUGUCUGCAAUGAUUCAAAUUUGGUACGAAAGGACUGCCAACCUAUUGGCUGAUCAUGCUUUUUAAAUUCAGAAGAGUGAUUCUAAA	0.215

Study 4
Target: Interferon regulatory factor 3, full length, phosphomimetic (IRF3, Homo sapiens, UniProt Q14653, residues 1-427, S386D/S396D/S398D/S402D/T404D/S405D)
Sequence of UniProt Q14653 (whole entry, unmodified, looked up): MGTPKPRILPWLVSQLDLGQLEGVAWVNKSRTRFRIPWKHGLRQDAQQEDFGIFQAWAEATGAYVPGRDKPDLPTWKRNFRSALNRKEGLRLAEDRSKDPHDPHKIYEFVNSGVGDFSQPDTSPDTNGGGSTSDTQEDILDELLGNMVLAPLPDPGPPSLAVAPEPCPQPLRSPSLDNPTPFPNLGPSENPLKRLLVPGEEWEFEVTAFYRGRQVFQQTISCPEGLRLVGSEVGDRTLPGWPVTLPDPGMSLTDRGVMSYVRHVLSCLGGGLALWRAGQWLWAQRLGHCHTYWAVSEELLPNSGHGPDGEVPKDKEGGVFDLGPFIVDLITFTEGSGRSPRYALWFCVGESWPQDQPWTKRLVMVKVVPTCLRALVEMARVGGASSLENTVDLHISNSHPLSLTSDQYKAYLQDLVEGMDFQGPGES
Method: protein-binding microarray
Molecule type: double-stranded DNA, one strand shown
Matrix: in vitro
Tested at: 2540 nM top
Setting: 60-bp whole probe
Added: salmon DNA 0.4 mg/ml
Baseline: random background probes
Reading: higher = stronger binding
Constant ends, left off below: GCCTAGCAC … GTCTTGATTCGCTTGACGCTGCTG
Strand	fitted relative affinity [z-score]
TTACAACTGAGACTGGATTAGTGCTAG	-0.247
TCATGGTTCCCATTCCAACTGTGCTAG	3.34
TATCTTATGATATATATAATAGTGCTA	0.698
GACGACCTGAGTTTCGAGACGTGCTAG	0.978
TTAGGTTTTGGTATCGGTTAGTGCTAG	4.08
TCTCCTTTCCAAATACCCTCGTGCTAG	6.89
AACGGTATCGGGTATCGGGACGTGCTA	1.97
TCATGTGCCCATCTCTGACTGTGCTAG	1.22
TAAGGACTGGGGACTGGGTTAGTGCTA	-1.34
TTAGGTTTCGACACTGGGTGAGTGCTA	2.54
GACGAACTGATTATCGAGACGTGCTAG	0.29
GACGGACTGCTTCCCCTGACGTGCTAG	-0.275
GACGAACTGAGTTTCGAGTCGTGCTAG	1.67
GACGGTTACGGACTGGGGACGTGCTAG	0.0676

For quick reference, copied from above (study 2):
Strand	bound/input enrichment [ratio]
CGGAGCCCUCCUCUCCCACAGGCCCAAGAUAUAACCCACCAGUGCCUUUUGUCUUCCUGUCAGCUCUGUCAAUCACGGCCCUGCCUUCACGCCCACACUCCCCAGCCAAAGUGGGGAGGG	0.447
GAGCGUCUCGCUCGAACCGGGAUCAUAGUGACCACUAGUGAGGCUGUCCUCCUACAGCUGGUGGCUGACAAAGACCACCCGAAGUUCAAGGAAAUUCAGAACCUAAUUAAGGCGAGUGCC	0.172
UAACCACAUCAAGAUGGUUGGGAAGCUGAAGCAGAACUUACUCUUGGCGUGUCUGGUGAUUAGUUCUGUGACCGUGUUUUACCUGGGCCAGCAUGCCAUGGAAUGCCAUCACCGAAUAGA	0.196
UUCUAGUAUGAUGGUGAUAUUGGCAAUUAUUAUUAUGGCCAGGGUCAUCCCAUGAAGCCUCAUAGAAUCCGGAUGACUCAUAACUUGCUGCUAAAUUAUGGUUUAUACCGAAAAAUGGAA	0.171
AUAAAGGCUAUGUUGAGUGGUCCAGGUCAGUUUGCUGAGAAUGAAACCAACGAGGUCAAUUUUAGAGAGAUACCUUCACAUGUGCUAUCAAAAGUGUGCAUGUAUUUUACCUACAAGGUC	0.109
CACGUGUCUGCAGUACUUGAUGUGGACUACUCUCCCACUGGGAAGGAGUUUGUGUCUGCCAGCUUUGAUAAGUCUAUUAGAAUCUUUCCUGUGGACAAGAGCCGAAGCAGGGAAGUGUAU	0.166
